Published values gathered from unrelated publications.
Each line is one published result; not all experiments were run side by side. Numbers after ± are the reported error.
APP amyloid-beta peptide: Amyloid-beta precursor protein, amyloid-beta peptide (APP, Homo sapiens, UniProt P05067)

Amino acid sequences for entries named in this document (tags omitted). A change or cut given only in a name is not applied to a line headed by its entry. Residues count along the entry.
UniProt P05067, whole entry, looked up: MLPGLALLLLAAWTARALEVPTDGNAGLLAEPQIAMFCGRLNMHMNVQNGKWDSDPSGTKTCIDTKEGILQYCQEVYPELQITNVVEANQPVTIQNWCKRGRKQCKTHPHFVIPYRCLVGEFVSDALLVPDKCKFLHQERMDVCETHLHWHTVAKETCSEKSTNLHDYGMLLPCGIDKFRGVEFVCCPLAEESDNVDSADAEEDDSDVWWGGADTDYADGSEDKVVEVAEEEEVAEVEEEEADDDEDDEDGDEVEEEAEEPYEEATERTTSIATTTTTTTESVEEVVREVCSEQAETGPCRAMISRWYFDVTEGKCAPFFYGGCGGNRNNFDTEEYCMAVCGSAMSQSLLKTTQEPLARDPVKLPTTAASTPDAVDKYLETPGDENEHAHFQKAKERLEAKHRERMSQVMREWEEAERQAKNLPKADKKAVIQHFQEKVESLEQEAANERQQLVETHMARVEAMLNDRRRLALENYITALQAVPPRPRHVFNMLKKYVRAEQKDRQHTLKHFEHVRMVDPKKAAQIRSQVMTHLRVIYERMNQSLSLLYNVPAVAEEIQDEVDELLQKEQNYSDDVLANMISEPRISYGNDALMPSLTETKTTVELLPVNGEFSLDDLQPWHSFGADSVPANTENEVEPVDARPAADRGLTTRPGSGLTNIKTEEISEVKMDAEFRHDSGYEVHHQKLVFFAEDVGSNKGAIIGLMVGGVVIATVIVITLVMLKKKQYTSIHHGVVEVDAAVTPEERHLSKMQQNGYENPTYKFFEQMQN
UniProt P05067, 672-713 limits assumed: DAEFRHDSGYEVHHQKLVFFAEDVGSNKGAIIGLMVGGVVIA
UniProt P12931, whole entry: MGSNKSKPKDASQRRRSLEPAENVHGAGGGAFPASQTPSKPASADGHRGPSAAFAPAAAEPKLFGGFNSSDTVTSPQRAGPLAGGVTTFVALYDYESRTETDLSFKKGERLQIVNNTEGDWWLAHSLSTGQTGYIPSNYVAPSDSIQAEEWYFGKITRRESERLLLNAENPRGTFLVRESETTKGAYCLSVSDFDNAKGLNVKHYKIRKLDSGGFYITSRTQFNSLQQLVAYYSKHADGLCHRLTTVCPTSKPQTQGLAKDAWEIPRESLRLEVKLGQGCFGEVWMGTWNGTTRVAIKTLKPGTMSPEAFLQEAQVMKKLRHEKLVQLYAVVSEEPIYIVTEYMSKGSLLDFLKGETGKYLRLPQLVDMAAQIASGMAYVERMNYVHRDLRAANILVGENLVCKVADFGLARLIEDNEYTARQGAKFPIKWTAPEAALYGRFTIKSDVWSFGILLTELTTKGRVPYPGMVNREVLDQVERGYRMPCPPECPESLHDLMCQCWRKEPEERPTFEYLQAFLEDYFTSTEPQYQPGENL
UniProt P03372, whole entry: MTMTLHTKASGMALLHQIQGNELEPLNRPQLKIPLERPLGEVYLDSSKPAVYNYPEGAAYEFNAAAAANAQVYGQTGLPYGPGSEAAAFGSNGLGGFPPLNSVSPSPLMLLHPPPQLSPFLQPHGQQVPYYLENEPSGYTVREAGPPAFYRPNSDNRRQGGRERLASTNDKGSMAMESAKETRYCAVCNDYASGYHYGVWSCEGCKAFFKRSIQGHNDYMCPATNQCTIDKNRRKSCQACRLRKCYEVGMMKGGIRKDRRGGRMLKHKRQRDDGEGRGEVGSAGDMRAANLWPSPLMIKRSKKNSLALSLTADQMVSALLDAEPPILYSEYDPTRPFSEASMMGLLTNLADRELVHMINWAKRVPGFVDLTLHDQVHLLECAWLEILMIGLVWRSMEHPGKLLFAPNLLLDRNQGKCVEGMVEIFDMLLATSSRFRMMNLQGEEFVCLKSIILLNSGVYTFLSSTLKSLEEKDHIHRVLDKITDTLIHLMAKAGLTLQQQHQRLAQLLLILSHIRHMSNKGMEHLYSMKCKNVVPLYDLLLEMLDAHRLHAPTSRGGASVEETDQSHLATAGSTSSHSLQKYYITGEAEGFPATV
UniProt P26038, whole entry, looked up: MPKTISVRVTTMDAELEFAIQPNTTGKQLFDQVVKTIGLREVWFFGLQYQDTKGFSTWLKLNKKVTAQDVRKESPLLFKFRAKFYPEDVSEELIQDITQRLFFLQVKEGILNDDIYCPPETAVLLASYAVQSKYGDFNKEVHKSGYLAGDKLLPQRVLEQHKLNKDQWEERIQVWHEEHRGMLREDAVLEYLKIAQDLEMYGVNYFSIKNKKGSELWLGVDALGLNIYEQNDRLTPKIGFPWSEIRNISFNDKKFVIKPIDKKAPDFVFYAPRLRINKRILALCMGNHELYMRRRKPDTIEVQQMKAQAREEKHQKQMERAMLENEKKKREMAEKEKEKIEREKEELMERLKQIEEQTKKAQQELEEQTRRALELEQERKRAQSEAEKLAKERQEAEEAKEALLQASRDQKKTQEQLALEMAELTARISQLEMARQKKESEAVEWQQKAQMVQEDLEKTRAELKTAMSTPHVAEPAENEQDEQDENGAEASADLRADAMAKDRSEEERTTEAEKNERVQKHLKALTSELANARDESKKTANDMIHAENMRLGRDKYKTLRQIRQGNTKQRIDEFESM
UniProt Q92630, whole entry: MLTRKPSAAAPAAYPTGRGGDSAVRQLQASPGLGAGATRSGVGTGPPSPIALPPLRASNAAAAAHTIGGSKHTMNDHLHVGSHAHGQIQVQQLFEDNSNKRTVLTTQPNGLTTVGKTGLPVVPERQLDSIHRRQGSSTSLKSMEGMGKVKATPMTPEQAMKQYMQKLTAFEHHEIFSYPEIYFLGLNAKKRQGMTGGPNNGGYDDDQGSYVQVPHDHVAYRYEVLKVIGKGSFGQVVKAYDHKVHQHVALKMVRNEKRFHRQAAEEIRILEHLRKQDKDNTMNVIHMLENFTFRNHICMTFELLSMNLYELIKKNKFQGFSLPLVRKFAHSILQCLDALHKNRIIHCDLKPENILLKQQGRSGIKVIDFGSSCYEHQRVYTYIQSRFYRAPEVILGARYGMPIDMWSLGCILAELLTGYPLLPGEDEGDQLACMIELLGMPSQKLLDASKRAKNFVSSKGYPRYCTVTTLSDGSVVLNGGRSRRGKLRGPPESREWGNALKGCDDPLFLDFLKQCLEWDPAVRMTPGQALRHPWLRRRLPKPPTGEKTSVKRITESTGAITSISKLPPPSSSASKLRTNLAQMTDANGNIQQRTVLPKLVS
UniProt Q07912, whole entry: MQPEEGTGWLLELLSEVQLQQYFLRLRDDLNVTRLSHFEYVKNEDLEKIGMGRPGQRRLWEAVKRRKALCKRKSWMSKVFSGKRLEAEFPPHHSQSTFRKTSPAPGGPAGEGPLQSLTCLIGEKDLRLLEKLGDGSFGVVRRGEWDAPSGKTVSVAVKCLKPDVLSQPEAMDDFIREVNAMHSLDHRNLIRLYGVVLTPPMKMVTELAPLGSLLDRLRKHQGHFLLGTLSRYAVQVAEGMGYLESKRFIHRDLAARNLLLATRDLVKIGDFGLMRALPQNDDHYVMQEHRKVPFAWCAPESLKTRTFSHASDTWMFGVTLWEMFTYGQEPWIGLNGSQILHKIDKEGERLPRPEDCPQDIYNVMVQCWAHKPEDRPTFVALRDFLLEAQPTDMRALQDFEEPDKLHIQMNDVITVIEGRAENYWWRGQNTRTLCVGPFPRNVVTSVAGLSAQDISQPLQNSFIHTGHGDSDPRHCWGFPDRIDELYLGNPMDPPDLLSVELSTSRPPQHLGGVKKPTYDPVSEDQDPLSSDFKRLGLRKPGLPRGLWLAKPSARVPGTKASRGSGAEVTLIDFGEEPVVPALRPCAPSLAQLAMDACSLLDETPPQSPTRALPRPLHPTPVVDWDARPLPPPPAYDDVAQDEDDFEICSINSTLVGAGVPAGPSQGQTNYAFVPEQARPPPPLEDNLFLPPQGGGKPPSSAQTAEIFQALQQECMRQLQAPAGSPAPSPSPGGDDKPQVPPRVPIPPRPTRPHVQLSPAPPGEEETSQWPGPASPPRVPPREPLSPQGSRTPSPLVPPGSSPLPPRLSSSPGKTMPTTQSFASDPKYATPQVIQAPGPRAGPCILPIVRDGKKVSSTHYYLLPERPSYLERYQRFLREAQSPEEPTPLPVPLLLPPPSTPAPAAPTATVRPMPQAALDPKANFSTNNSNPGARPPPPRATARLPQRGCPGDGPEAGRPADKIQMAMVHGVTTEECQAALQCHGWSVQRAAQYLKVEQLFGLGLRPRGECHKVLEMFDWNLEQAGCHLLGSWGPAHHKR
UniProt P29466, whole entry, looked up: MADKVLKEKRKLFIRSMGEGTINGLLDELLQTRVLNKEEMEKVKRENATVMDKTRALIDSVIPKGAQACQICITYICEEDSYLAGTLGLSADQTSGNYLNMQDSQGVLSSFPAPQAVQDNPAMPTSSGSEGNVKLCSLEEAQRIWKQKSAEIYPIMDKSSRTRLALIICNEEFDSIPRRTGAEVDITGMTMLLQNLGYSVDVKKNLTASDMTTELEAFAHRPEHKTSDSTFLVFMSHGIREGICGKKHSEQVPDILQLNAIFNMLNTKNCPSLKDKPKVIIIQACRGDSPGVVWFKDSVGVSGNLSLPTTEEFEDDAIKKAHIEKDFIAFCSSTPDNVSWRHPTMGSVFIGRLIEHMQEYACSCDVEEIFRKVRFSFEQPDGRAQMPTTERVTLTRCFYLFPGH
UniProt P07949, whole entry, looked up, stated change not applied: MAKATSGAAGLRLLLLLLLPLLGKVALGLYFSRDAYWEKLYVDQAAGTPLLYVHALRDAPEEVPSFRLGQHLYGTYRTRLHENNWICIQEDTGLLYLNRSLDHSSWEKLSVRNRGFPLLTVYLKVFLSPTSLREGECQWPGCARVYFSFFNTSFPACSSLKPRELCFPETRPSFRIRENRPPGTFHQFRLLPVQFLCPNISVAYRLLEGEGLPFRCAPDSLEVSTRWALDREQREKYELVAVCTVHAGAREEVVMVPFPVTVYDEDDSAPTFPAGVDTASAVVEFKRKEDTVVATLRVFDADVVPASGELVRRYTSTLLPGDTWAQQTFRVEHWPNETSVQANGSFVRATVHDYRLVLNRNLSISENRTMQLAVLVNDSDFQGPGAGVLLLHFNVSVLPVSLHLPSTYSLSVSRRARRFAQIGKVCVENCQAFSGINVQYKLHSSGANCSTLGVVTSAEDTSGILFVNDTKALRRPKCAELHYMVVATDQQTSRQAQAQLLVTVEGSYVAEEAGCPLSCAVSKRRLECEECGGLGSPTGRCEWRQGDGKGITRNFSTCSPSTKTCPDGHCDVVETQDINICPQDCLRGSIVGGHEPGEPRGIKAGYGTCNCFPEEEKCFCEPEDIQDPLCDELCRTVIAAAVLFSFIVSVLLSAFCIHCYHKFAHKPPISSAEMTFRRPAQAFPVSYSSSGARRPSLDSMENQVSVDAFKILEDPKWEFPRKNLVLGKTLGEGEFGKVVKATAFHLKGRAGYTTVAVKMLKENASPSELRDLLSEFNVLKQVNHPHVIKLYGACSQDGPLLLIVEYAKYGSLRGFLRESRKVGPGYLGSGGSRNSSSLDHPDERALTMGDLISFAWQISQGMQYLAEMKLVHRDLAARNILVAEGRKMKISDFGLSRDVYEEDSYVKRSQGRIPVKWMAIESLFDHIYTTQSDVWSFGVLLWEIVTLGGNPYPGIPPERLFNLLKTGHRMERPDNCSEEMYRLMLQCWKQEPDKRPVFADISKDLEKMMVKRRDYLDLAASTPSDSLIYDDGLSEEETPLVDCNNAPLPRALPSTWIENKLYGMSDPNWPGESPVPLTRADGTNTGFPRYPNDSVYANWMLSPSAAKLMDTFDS
UniProt P10747, whole entry, looked up: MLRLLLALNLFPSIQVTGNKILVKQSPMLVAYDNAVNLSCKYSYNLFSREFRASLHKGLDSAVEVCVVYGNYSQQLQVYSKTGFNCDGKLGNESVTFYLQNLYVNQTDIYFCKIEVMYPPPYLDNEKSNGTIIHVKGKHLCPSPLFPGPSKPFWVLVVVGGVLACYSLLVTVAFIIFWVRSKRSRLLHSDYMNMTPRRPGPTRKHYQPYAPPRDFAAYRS
UniProt O00748, 27-559 limits assumed: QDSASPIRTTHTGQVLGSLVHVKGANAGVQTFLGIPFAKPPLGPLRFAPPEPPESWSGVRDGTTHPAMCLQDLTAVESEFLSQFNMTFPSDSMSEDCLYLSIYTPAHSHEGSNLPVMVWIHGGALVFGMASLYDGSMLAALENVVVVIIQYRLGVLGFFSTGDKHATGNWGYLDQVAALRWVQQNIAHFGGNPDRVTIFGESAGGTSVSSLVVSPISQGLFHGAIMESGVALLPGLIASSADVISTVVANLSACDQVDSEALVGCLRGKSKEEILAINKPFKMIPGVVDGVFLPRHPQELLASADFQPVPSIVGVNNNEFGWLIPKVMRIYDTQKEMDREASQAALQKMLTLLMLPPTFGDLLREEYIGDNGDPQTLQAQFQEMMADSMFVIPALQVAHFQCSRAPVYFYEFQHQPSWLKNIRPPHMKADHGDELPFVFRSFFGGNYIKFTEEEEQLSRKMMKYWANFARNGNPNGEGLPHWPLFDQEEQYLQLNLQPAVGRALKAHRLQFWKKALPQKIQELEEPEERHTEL

The IC50 of `CN1CC[C@H](c2c(O)cc(O)c3c(=O)cc(-c4ccccc4F)oc23)[C@H](O)C1` is reported as greater than 10 µM (Proto-oncogene tyrosine-protein kinase Src (SRC, Homo sapiens, UniProt P12931); ATP at Km).
With `CC(C)(C(=O)/C=C/c1ccc(O)c(OC(F)(F)F)c1)C(=O)/C=C/c1ccc(O)c(OC(F)(F)F)c1` the IC50 was 10.2 µM (Amyloid-beta precursor protein, Aβ aggregates (APP, Homo sapiens, UniProt P05067); binding, thioflavin T competition).
`CCn1nccc1N=CC1=Cc2cc3c(cc2[C@@H](c2cc(OC)c(OC)c(OC)c2)[C@@H]1C(=O)OC)OCO3` has an EC50 of 25.3 ± 1 µM (Leishmania infantum; iRFP fluorescence; mouse splenocytes infected, amastigote, iRFP, ex vivo splenic explant; 48 h).
With `Cn1ccnc1SCC(=O)Nc1ccc2nc(SCC(=O)NC3CC3)sc2c1` the IC50 was 20 to 50 µM (Estrogen receptor (ESR1, Homo sapiens, UniProt P03372); reporter gene, antagonist; HEC-1 transfected ERα luciferase reporter).
The IC50 of `O=C(Nc1ccc(-c2nc3ccc(NC(=O)N4CCOCC4)cc3s2)cc1)N1CCOCC1` is reported as greater than 100 µM (Moesin, with CD44 (Homo sapiens, UniProt P26038); MSN-CD44 interaction, inhibitor, TR-FRET; added: CD44).
With `COC(=O)/C(=C/c1c[nH]c2ccc(C#N)cc12)c1ccc(NS(C)(=O)=O)cc1` the IC50 was greater than 20 µM (APP amyloid-beta peptide; Aβ42 oligomerisation, ELISA).
The IC50 of `COc1ccc2nc3ccccc3c(SCCCN3C(=O)c4ccccc4C3=O)c2c1` is reported as 1.3 µM (Dual specificity tyrosine-phosphorylation-regulated kinase 2 (DYRK2, Homo sapiens, UniProt Q92630); inhibitor; added: Woodtide peptide).
The IC50 of `CCN1C(=O)c2ccccc2N(C)c2nc(Nc3ccc(N4CCN(C)CC4)cc3OC)ncc21` is reported as 0.545 µM (Activated CDC42 kinase 1 (TNK2, Homo sapiens, UniProt Q07912); binding, inhibitor, LanthaScreen binding).
The selectivity index of `COC(=O)[C@@H]1C(C=Nc2ccccc2O)=Cc2cc3c(cc2[C@H]1c1cc(OC)c(OC)c(OC)c1)OCO3` is reported as 0.1 (Leishmania infantum; Alamar Blue; HepG2; relative to: CC50 HepG2 over EC50 amastigotes).
With `O=C(Nc1ccc2cc(NC(=O)C(F)(F)F)nc(Br)c2c1)C(F)(F)F` the IC50 was 12.3 µM (CUGBP Elav-like family member 1, RRM1/2 (CELF1, Homo sapiens, UniProt Q92879); RRM1/2-RNA binding, inhibitor, fluorescence polarization; added: Cy3 GU RNA probe).
`Cc1ccc(-c2cc(C(F)(F)F)c(C#N)c(SCC(=O)Nc3ccccc3F)n2)cc1` has an IC50 of greater than 10 µM (Trace amine-associated receptor 1 (TAAR1, Homo sapiens, UniProt Q96RJ0)).
For `CCOCCN1CCN(c2cc(N3CCCC3)nc(N3CCCC3)n2)CC1`, the IC50 was 0.043 ± 0.003 µM (Caspase-1 (CASP1, Homo sapiens, UniProt P29466); enzyme activity, inhibitor; 30 min preincubation, added: Ac-WEHD-AMC 10 µM).
With `CN1CCN(Cc2ccc(NC(=O)c3cncc(C#Cc4cncc5ncccc45)c3)cc2C(F)(F)F)CC1` the IC50 was 0.0321 ± 0.00141 µM (Kinesin-1 heavy chain/ Tyrosine-protein kinase receptor RET (RET/KIF5B, Homo sapiens, UniProt P07949+P33176, G810C); cell viability, inhibitor, CellTiter-Glo; Ba/F3 KIF5B-RET G810C).
For `O=C(NCc1ccc(-c2cnco2)cc1)[C@@H]1C[C@@H](O)CN1C(=O)c1cccc(Br)c1`, the IC50 was 39.5 ± 3.7 µM (von Hippel-Lindau disease tumor suppressor, with elongin B, C (VHL, Homo sapiens, UniProt P40337); binding, fluorescence polarization; 10% DMSO, added: FAM-HIF1α peptide tracer).
The IC50 of `COc1ccc2[nH]cc(/C=C/c3ccc(OS(=O)(=O)c4ccc(C)cc4)cc3)c2c1` is reported as 3.4 µM (APP amyloid-beta peptide; Aβ42 oligomerisation, ELISA).
The IC50 of `COc1ccc(CC(=O)OCc2ccc(-n3cccn3)cc2)cc1F` is reported as 10.3 ± 3.3 µM (CD28, with B7 (Homo sapiens, UniProt P10747); luciferase reporter gene, blocker; Jurkat with Raji cells; 5 h).
`CC1CN([C@H](C)CO)C(=O)c2cc(NC(=O)Cc3cn(C)c4ccccc34)ccc2OC1CN(C)S(=O)(=O)c1ccc(Cl)cc1` (stereo partly drawn) has an IC50 of 8.9 µM (Scavenger receptor class B member 1 (Mus musculus, UniProt Q61009); DiI-HDL uptake, inhibitor; ldlA[mSR-BI] cells; DMSO stock solution).
`COc1cc(Nc2ccnc3ccc(I)cc23)cc(OC)c1OC` has an IC50 of greater than 10 µM (Serine/threonine-protein kinase N3 (PKN3, Homo sapiens, UniProt Q6P5Z2); target engagement, NanoBRET; HEK293).
For `O=C(O)c1cc(C(=O)N[C@@H](Cc2cnc[nH]2)C(=O)O)cc([C@H]2CCN[C@@H]2C(=O)O)c1`, the IC50 was 10 to 50 µM (kainate receptor (rat); binding, radioligand binding; rat cortical synaptosomes; added: [3H]kainate).
With `N#Cc1c2c(c(NC3CCCC3)n3c1nc1ccccc13)CCC2` the IC50 was 29.7 µM (ERO1-like protein alpha (Homo sapiens, UniProt Q96HE7); enzyme activity, inhibitor, fluorescence).
The IC50 of `C=CCN(CC=C)C(=O)Oc1ccccc1C=C1Cc2cc(OC)c(OC)cc2C1=O` is reported as 0.35 ± 0.0254 µM (Cocaine esterase (CES2, Homo sapiens, UniProt O00748); inhibitor; 3 min preincubation, added: fluorescein diacetate).

Some of these lines once more:
`CCn1nccc1N=CC1=Cc2cc3c(cc2[C@@H](c2cc(OC)c(OC)c(OC)c2)[C@@H]1C(=O)OC)OCO3` has an EC50 of 25.3 ± 1 µM (Leishmania infantum; iRFP fluorescence; mouse splenocytes infected, amastigote, iRFP, ex vivo splenic explant; 48 h).
